Published values gathered from unrelated publications.
Protocols differ between the studies behind these lines. Values joined by “and” are separate records of one study, mostly repeats; a detail may differ. ± marks the error that the study gave.
UniProt Q13554, sequence (whole entry, looked up): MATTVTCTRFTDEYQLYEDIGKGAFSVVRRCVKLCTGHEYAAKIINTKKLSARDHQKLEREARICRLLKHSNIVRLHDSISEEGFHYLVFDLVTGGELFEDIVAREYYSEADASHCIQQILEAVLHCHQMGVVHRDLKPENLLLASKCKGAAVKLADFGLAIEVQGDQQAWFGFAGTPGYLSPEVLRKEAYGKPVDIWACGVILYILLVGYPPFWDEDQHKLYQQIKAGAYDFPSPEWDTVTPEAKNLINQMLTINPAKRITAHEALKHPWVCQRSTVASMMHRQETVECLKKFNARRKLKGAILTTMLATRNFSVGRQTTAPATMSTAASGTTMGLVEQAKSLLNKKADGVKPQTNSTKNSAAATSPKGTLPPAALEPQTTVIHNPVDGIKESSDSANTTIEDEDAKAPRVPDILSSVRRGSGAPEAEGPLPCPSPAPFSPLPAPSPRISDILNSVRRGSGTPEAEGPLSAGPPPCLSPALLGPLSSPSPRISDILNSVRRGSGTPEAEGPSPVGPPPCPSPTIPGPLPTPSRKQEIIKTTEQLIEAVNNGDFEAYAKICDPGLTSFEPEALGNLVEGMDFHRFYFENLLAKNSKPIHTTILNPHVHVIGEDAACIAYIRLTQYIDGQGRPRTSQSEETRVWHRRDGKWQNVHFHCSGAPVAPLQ
UniProt Q14289, sequence (whole entry, looked up): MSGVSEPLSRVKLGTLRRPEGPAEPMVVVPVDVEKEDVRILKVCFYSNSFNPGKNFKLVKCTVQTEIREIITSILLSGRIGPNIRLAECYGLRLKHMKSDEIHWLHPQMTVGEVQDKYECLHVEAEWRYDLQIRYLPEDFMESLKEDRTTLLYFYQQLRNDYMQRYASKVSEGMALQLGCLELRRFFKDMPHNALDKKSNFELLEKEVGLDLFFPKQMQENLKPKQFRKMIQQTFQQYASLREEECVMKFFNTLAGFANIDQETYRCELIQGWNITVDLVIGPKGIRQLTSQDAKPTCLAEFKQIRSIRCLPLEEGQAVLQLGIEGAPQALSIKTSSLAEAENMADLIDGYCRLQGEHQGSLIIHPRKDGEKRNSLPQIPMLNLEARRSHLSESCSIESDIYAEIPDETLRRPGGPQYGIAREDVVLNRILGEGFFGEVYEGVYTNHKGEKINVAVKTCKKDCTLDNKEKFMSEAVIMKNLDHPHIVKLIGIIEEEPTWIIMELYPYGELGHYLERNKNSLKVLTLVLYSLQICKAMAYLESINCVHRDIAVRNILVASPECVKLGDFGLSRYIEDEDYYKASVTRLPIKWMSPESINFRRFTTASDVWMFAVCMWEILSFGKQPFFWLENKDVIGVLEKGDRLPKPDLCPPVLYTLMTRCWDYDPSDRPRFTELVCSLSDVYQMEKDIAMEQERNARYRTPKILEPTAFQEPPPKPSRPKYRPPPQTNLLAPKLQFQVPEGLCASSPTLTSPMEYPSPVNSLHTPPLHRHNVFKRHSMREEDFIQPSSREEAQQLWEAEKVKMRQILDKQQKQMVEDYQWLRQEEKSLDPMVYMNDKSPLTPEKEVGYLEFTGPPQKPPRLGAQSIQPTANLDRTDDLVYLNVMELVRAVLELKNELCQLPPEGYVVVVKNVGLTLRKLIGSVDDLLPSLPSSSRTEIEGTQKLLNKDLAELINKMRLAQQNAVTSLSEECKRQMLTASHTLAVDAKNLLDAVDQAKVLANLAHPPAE

`CC[C@H](C)[C@H](NC(=O)[C@H](CO)NC(=O)[C@H](Cc1ccc(O)cc1)NC(=O)[C@H](Cc1ccc(O)cc1)NC(=O)[C@H](CC(N)=O)NC(=O)CNC(=O)[C@H](CO)NC(=O)[C@H](Cc1ccc(O)cc1)NC(=O)[C@H](CO)NC(=O)[C@H](CO)NC(=O)[C@H](CC(N)=O)NC(=O)COCCOCCNC(=O)CN1CCN(CC(=O)O)CCN(CC(=O)O)CCN(CC(=O)O)CC1)C(=O)N[C@@H](CC(C)C)C(N)=O` [copper-64 labelled] has a tissue uptake of 14.8 %ID/mL (dynamic PET; KPC mouse Ptf1a-CreER tdTomato, metastases; intravenous, 4.6 MBq/mouse, 7.5 min, 84 d after tamoxifen).
For `CSCC[C@H](NC(=O)[C@H](CCCNC(=N)N)NC(=O)[C@H](CCCNC(=N)N)NC(=O)[C@H](CCCCN)NC(=O)[C@H](C)NC(=O)[C@H](CCCNC(=N)N)NC(=O)CNC(=O)[C@@H](N)[C@@H](C)O)C(=O)N[C@@H](CCC(N)=O)C(=O)N[C@@H](Cc1ccc(O)cc1)C(=O)N[C@@H](CC(N)=O)C(=O)N[C@@H](CCCNC(=N)N)C(=O)N[C@@H](CCCNC(=N)N)C(N)=O`, the compound remaining was 87.5% (chemical stability, HPLC; human, serum; 100 µM, 30 min, pH 7.4).
The t1/2 of `C#Cc1c(F)ccc2cc(O)cc(-c3ncc4c(N5CC6CCC(C5)N6C(=O)OC(C)OC(=O)C5CCOC5)nc(OC[C@@]56CCCN5C[C@H](F)C6)nc4c3F)c12` (stereo partly shown) is reported as 2.48 min (item: prodrug; mouse whole blood; 1 µM).
For `CC(=O)NCCCC[C@@H]1NC(=O)[C@H](Cc2c[nH]c3c(C)cccc23)NC(=O)[C@H]([C@@H](C)O)NC(=O)[C@H](CC(N)=O)NC(=O)[C@@H](NC(C)=O)C(C)(C)SSC(C)(C)[C@@H](C(=O)N[C@@H](Cc2ccc(OCCN)cc2)C(=O)N[C@@H](Cc2ccc3ccccc3c2)C(=O)NC2(C(=O)N[C@@H](CCC(=O)O)C(=O)N[C@@H](CC(N)=O)C(=O)N[C@@H](Cc3cccnc3)C(=O)N(C)CC(N)=O)CCOCC2)NC1=O`, “plasma protein binding” read 49.7 ± 5.4% (equilibrium dialysis; human, plasma; 1 µM).
For `CC(=O)c1c(C)c2cnc(Nc3ccc(N4CCNCC4)cn3)nc2n(C2CCCC2)c1=O`, “white blood cell count” read 3.6 ± 1.3 10⁹/liter (C57BL/6 mice, blood; 25 mg/kg, P25, dosed P10 to P24).
`CC(C)[C@@H]1NC(=O)CNC(=O)[C@H](CC(N)=O)NC(=O)[C@H](CCCNC(=N)N)NC(=O)[C@H](Cc2ccc(O)cc2)NC(=O)[C@H](C(C)C)NC(=O)[C@@H](NC(=O)[C@@H](NC(=O)[C@H](CC(N)=O)NC(=O)[C@H](Cc2c[nH]c3ccccc23)NC(=O)[C@H](C)NC(=O)[C@H](Cc2ccccc2)NC(=O)CNC(=O)[C@H](CCCCN)NC(=O)[C@H](Cc2ccccc2)NC(=O)[C@H](Cc2ccccc2)NC(=O)[C@H](CCCCN)NC(=O)OCC2c3ccccc3-c3ccccc32)C(C)C)CSSC[C@@H](C(=O)N[C@@H](Cc2c[nH]cn2)C(=O)N[C@@H](CCCNC(=N)N)C(=O)N[C@@H](CCCNC(=N)N)C(=O)N[C@@H](C)C(=O)N[C@@H](CC(N)=O)C(N)=O)NC(=O)[C@H](C(C)C)NC(=O)[C@H](CCCNC(=N)N)NC1=O` has a plateletcrit of 0.03% (ICR mice, blood; intraperitoneal, 5 mg/kg, day 5).
The hemolysis of `CC[C@H](C)[C@H](NC(=O)[C@H](C)NC(=O)[C@H](CCCCN)NC(=O)[C@H](CC(C)C)NC(=O)[C@@H](N)Cc1ccccc1)C(=O)N[C@@H](CCCCN)C(=O)N[C@@H](CCCCN)C(=O)N[C@@H](Cc1ccccc1)C(=O)NCC(=O)N[C@@H](CCCCN)C(=O)N[C@@H](CCC(=O)O)C(=O)N[C@@H](Cc1ccccc1)C(=O)N[C@@H](CCCCN)C(=O)N[C@@H](CCCCN)C(=O)N[C@H](C(=O)NCC(=O)N[C@@H](C)C(=O)N[C@@H](CCCCN)C(=O)N[C@@H](CC(C)C)C(=O)N[C@@H](CCCCN)C(=O)O)[C@@H](C)CC` is reported as 0.633% (human red blood cells; 4 mg/L, 1 h).
`COc1ccccc1-c1n[nH]c2nc(NC3CCN(C(=O)Cc4ccc(F)cc4F)CC3)ncc12` has a relative abundance of 1.39 (bead binding, competition bead pull-down, item: LINJ.03.0360; Leishmania donovani extract; 10 µM; reference: vehicle).
For `CC(C)C[C@H](NC(=O)CCS[C@H]1O[C@H](CO)[C@@H](O)[C@H](O)[C@H]1O)C(=O)N1CCC[C@H]1C(=O)N[C@@H](Cc1ccccc1)C(=O)N[C@@H](Cc1ccccc1)C(=O)N[C@@H](CC(=O)O)C(=O)N[C@@H](CC(=O)O)C(=O)N[C@@H](C)C(=O)N[C@@H](Cc1c[nH]cn1)C(=O)N[C@@H](CCCCN)C(N)=O`, “intact peptide remaining” read 84% (RP-HPLC; 50% human serum; 100 µM, 24 h, 37 °C).
Under “blood urea nitrogen”, `CSCC[C@H](NC(=O)[C@@H](NC(=O)[C@H](CC(C)C)NC(=O)[C@@H](NC(=O)[C@H](Cc1c[nH]cn1)NC(=O)CCCCCNC(=O)[C@H](CCCNC(=N)N)NC(=O)[C@H](CCCNC(=N)N)NC(=O)[C@H](CCCNC(=N)N)NC(=O)[C@H](CCC(N)=O)NC(=O)[C@H](CCCNC(=N)N)NC(=O)[C@H](CCCNC(=N)N)NC(=O)[C@H](CCCCN)NC(=O)[C@H](CCCCN)NC(=O)[C@H](CCCNC(=N)N)NC(=O)CNC(=O)[C@@H](N)Cc1ccc(O)cc1)C(C)C)C(C)C)C(=O)N[C@@H](CS)C(=O)N[C@@H](C)C(=O)N[C@H](C(N)=O)[C@@H](C)O` is recorded as 29 mg/dL and 26 mg/dL and 25 mg/dL (C57BL/6J mice; Alzet osmotic pump, 3 mg/kg, 8 weeks).
For `CC(C)(C)C(=O)OCOP(=O)(OCOC(=O)C(C)(C)C)C1CCCN(O)C1=O` (stereo not shown), the TGI was 11.8 µM (SF-539).
The tissue uptake of `CC[C@H](C)[C@H](NC(=O)[C@H](CCCCN)NC(=O)CNC(=O)[C@H](CC(C)C)NC(=O)[C@H](Cc1ccccc1)NC(=O)[C@H](CCCCN)NC(=O)[C@H](CO)NC(=O)[C@H](Cc1ccccc1)NC(=O)[C@H](Cc1c[nH]c2ccccc12)NC(=O)[C@H](CCC(N)=O)NC(=O)[C@@H](NC(=O)[C@H](Cc1ccccc1)NC(=O)CCCCCNC(=O)CN1CCN(CC(=O)O)CCN(CC(=O)O)CCN(CC(=O)O)CC1)C(C)C)C(=O)N[C@@H](CCC(=O)O)C(=O)N1CCC[C@H]1C(=O)N[C@@H](CC(=O)O)C(=O)N[C@H](C(=O)N[C@@H](CO)C(=O)N[C@@H](CCC(N)=O)C(=O)N[C@H](C(=O)N[C@@H](CCC(N)=O)C(=O)N[C@@H](CC(=O)O)C(=O)N1CCC[C@H]1C(=O)N[C@@H](CC(N)=O)C(=O)N[C@@H](CC(=O)O)C(=O)N[C@@H](CCC(N)=O)C(=O)N[C@@H](Cc1ccc(O)cc1)C(=O)N[C@@H](CCC(=O)O)C(=O)N1CCC[C@H]1C(=O)N[C@@H](Cc1ccccc1)C(=O)O)C(C)C)C(C)C` [copper-64 labelled] is reported as 1.54 ± 0.08 %ID/g (C57BL/6 mice, male, tumour-free, pancreas; 24 h).
For `CCCCCCCCCCCCCC(=O)N[C@H](CCN)C(=O)N[C@@H]1C(=O)N[C@@H](CCN)C(=O)N[C@@H](CC(C)C)C(=O)N[C@@H](CCN)C(=O)N[C@H](Cc2ccccc2)C(=O)N[C@@H](CC(C)C)C(=O)N[C@@H](CCN)C(=O)N[C@H](CCN)C(=O)N[C@@H](C(C)C)C(=O)N[C@@H](CC(=O)O)C(=O)O[C@@H]1C`, the MRT(0-inf) was 18 h (rat, plasma; subcutaneous, 10 mg/kg).
`CCCC[C@H]1C(=O)N(C)[C@@H](CCCC)C(=O)N[C@@H](CCCNC(=O)CN2CCN(CC(=O)O)CCN(CC(=O)O)CCN(CC(=O)O)CC2)C(=O)N[C@H](C(=O)NCC(N)=O)CSCC(=O)N[C@@H](Cc2ccc(O)cc2)C(=O)N(C)[C@@H](C)C(=O)N[C@@H](CC(N)=O)C(=O)N2CCC[C@H]2C(=O)N[C@@H](Cc2c[nH]cn2)C(=O)N[C@@H](CC(C)C)C(=O)N(C)CC(=O)N[C@@H](Cc2c[nH]c3ccccc23)C(=O)N[C@@H](CO)C(=O)N[C@@H](Cc2c[nH]c3ccccc23)C(=O)N1C` [gallium-68 labelled] gave a tissue uptake of 5.96 ± 2.76 %ID/g (NOD/SCID mice with CHO-hPD-L1 xenograft, heart; 60 min post injection).
The plasma concentration of `CC(CCC(=O)NCC(=O)O)C1CCC2C3C(O)CC4CC(OC5OC(C(=O)O)C(O)C(O)C5O)CCC4(C)C3CCC12C` (stereo not shown) is reported as 0.0699 µg/mL (men, T/C genotype, plasma; dose not given, geometric mean).
`CCCCC[C@H]1C(=O)N[C@H](C)C(=O)N(C)[C@@H](CCCCC)C(=O)N[C@H](C)C(=O)N(C)[C@@H](CCCCC)C(=O)N(C)[C@H](C)C(=O)N(C)[C@@H](CCCCC)C(=O)N(C)[C@H](C)C(=O)N1C` gave a log Papp of -5.39 ± 0.03 (PAMPA, HPLC-UV; 500 µM, pH 7.4).
`CN(C)[C@H]1C[C@@]23CC[C@@]4(O2)C(=CC[C@]2(C)[C@@H](c5ccc6ccncc6c5)CC[C@H]24)C=C3[C@@H](O)[C@@H]1O` gave an inhibition of -4.3% (PTK2B (Homo sapiens, UniProt Q14289); ATP probe labelling, inhibitor, KiNativ profiling; 0.1 µM).
The Cmax of `Cn1nc(NS(C)(=O)=O)c2c(Cl)ccc(-n3c([C@H](Cc4cc(F)cc(F)c4)NC(=O)Cn4nc(C(F)F)c5c4C(F)(F)[C@@H]4C[C@H]54)nc4nc(OCCC(F)(F)F)ccc4c3=O)c21` is reported as 0.0269 µg/mL (human, plasma; oral, 25 mg single dose, powder in bottle, geometric mean).
`O=C1NC2(CC2)COc2ncc(F)cc2[C@H]2COCCN2c2ccn3ncc1c3n2` — result for “organ-to-brain weight ratio”: 16.8 ± 4.89% (Sprague-Dawley rat, female, thymus; oral, 20 mg/kg/day, 4 weeks dosing, end of recovery).
`[Ga+3].[O-]c1ccc(Br)c2cccnc12.[O-]c1ccc(Br)c2cccnc12.[O-]c1ccc(Br)c2cccnc12` has a log P of 1.45 (oil/water; pH 5.4).
With `CS(C)(=O)=Nc1ccc(-c2ccc(-c3nc4cc(O[C@@H]5CO[C@H]6[C@@H]5OC[C@H]6O)[nH]c4cc3F)cc2)cc1` the inhibition was -5% (CAMK2B (Homo sapiens, UniProt Q13554); enzyme activity, inhibitor; 10 µM).
With `CN1Cc2cc(Cl)ccc2-n2c(nnc2C2CCN(c3cccc(F)n3)CC2)C1` the concentration was 0.00898 ± 0.0016 µg/mL (Sprague-Dawley rats male, brainstem; intravenous, 0.03 mg/kg, 5 min).

A few entries again:
For `CC(=O)c1c(C)c2cnc(Nc3ccc(N4CCNCC4)cn3)nc2n(C2CCCC2)c1=O`, “white blood cell count” read 3.6 ± 1.3 10⁹/liter (C57BL/6 mice, blood; 25 mg/kg, P25, dosed P10 to P24).
